Published values gathered from unrelated publications.
Every numbered part comes from another study and shows a few of its results, in no order.

Block 1
Target: Histone acetyltransferase KAT6A, both winged helices, GST fusion (KAT6A, Homo sapiens, UniProt Q92794, residues 1-181)
Method: protein binding microarray
Molecule type: double-stranded DNA, one strand shown
Medium: in vitro
Concentration: not given
Notes: 8-mer, flanks averaged, mean of 2 arrays, mostly near background
Baseline: not given
Reading: higher = stronger binding
Quantity: E-score
Target sequence (chain): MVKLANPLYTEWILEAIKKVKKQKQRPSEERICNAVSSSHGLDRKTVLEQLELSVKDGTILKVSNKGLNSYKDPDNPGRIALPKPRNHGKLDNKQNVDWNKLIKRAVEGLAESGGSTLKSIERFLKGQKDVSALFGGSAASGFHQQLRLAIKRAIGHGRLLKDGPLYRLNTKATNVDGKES
Sequence = CGCTTTCA; result = 0.158
Sequence = AGTAGCTC; result = -0.102
Sequence = CAGGTATA; result = -0.0619
Sequence = CGGGTAGA; result = 0.141
Sequence = AGTGTCGC; result = 0.0575
Sequence = CTCAAAGA; result = 0.0135
Sequence = AGCACCCA; result = -0.174
Sequence = ATATGTGC; result = 0.0817
Sequence = CGGCTATA; result = 0.264
Sequence = GCCTTCTA; result = -0.101
Sequence = CTGAGCGC; result = 0.222
Sequence = GCACCAAC; result = -0.00388
Sequence = GATAACAC; result = 0.00392
Sequence = AACAGAAG; result = -0.156
Sequence = GATCTACA; result = -0.125
Sequence = AATTGTTG; result = -0.0607
Sequence = TGGAAGAA; result = -0.126
Sequence = AAACTTGG; result = -0.0972
Sequence = AATCACGT; result = -0.0339
Sequence = CGACAAAA; result = 0.0473
Sequence = CATGACGA; result = -0.0119
Sequence = AATTGTCA; result = -0.111
Sequence = ACTTACCT; result = -0.201
Sequence = CCACTGCC; result = -0.0771

Block 2
Target: TAR DNA-binding protein 43, full length, His tag (TARDBP, Homo sapiens, UniProt Q13148, residues 1-414)
Method: RNA Bind-n-Seq
Molecule type: RNA
Medium: in vitro
Concentration: 20 nM
Notes: 6-mer, flanks averaged, single round
With: 150 mM KCl
Baseline: input library
Reading: higher = stronger binding
Quantity: 6-mer enrichment (R)
Sequence = GAAAAA; result = 0.891
Sequence = UUGUAC; result = 0.611
Sequence = AUCUGA; result = 0.583
Sequence = CACCUC; result = 0.618
Sequence = UGGUUA; result = 0.743
Sequence = UGGUGA; result = 1.37
Sequence = AGCUAA; result = 0.634
Sequence = ACAUCA; result = 0.609
Sequence = UUGAAC; result = 0.637
Sequence = GGGCGG; result = 9.34
Sequence = AGUUAC; result = 0.613
Sequence = AAAAGG; result = 0.985
Sequence = GUAGAC; result = 0.913
Sequence = ACAUUU; result = 0.623
Sequence = GGUCAC; result = 0.956
Sequence = AGAAAC; result = 0.662
Sequence = GCAUGU; result = 1.02
Sequence = UUACUA; result = 0.571
Sequence = GUUCUU; result = 0.599
Sequence = GCCCGC; result = 0.788
Sequence = AUGUCG; result = 0.823
Sequence = UCCCUG; result = 0.683

Block 3
Target: Prothrombin, mature alpha-thrombin (F2, Homo sapiens, UniProt P00734)
Method: aptamer microarray, sandwich
Molecule type: DNA with 2'F-ANA
Medium: in vitro
Concentration: 200 nM
Notes: whole 15-mer aptamer, many near background
With: Cy3 exosite-II aptamer, 400 nM
Reading: higher = stronger binding
Quantity: mean fluorescence intensity
Sequence: GGTTGGTGTGGTTGG
Modification = 2'F-ANA at 1 6 9 10 11 12 14 15; result = 58.8 a.u.
Modification = 2'F-ANA at 2 4 7 8 9 10 15; result = 91.9 a.u.
Modification = 2'F-ANA at 4 5 6 7 8 9 10 12 13 14; result = 43.5 a.u.
Modification = 2'F-ANA at 3 5 6 9 11 12; result = 183 a.u.
Modification = 2'F-ANA at 1 3 4 5 7 9 11 12 14 15; result = 54.5 a.u.
Modification = 2'F-ANA at 1 2 3 8 9 10 11; result = 62.6 a.u.
Modification = 2'F-ANA at 1 4 5 10 11 12 15; result = 49.9 a.u.
Modification = 2'F-ANA at 4 10 11 12 15; result = 120 a.u.
Modification = 2'F-ANA at 1 2 3 5 6 7 11 14 15; result = 44.4 a.u.
Modification = 2'F-ANA at 2 4 7 8 9 10 14; result = 69.9 a.u.
Modification = 2'F-ANA at 2 4 6 10 11 12 13 14; result = 73 a.u.
Modification = 2'F-ANA at 2 3 4 6 7 9 10 12 14; result = 165 a.u.
Modification = 2'F-ANA at 2 8 10 11 12; result = 173 a.u.
Modification = 2'F-ANA at 1 2 3 7 9 12 13 14 15; result = 92.6 a.u.
Modification = 2'F-ANA at 3 11 13 14; result = 648 a.u.
Modification = 2'F-ANA at 2 4 5 9 10 11 12 15; result = 53.4 a.u.
Modification = 2'F-ANA at 3 4 8 9 13 14; result = 291 a.u.
Modification = 2'F-ANA at 6 7 8 9 14; result = 201 a.u.
Modification = 2'F-ANA at 5 6 8 10 11 12 13 15; result = 48.5 a.u.
Modification = 2'F-ANA at 3 8 11 12 14 15; result = 575 a.u.
Modification = 2'F-ANA at 1 2 6 7 8 10 12 13 15; result = 65.5 a.u.
Modification = 2'F-ANA at 2 7 8 12; result = 803 a.u.
Modification = 2'F-ANA at 1 2 4 6 8 11 14 15; result = 49.5 a.u.
Modification = 2'F-ANA at 1 6 9 10 13 14 15; result = 46.7 a.u.
Modification = 2'F-ANA at 2 3 6 10 12 14; result = 317 a.u.

Block 4
Target: Centromere-binding protein 1, full length, His-tagged (CBF1, Saccharomyces cerevisiae, UniProt P17106, residues 1-351)
UniProt P17106, sequence (whole entry, looked up): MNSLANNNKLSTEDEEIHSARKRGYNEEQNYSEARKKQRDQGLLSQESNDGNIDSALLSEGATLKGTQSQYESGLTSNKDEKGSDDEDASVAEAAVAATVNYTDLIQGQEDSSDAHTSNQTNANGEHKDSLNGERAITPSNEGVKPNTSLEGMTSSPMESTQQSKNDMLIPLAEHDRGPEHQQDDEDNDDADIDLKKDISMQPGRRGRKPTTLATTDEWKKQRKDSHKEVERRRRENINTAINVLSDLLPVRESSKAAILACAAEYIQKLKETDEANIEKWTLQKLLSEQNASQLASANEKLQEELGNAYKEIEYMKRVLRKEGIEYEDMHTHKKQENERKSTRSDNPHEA
Method: competition protein-binding microarray
Molecule type: double-stranded DNA, one strand shown
Medium: in vitro
Concentration: 2 µM
Notes: whole 60-bp probe, lowest competitor level
With: Pho4 competitor, 0.05 µM
Reading: higher = stronger binding
Quantity: fluorescence intensity
Constant ends, left off below: … GTCTTGATTCGCTTGACGCTGCTG
Sequence = AAAGCGGTAATTTGAGTCGTGGGTGCAGATATCTAT; result = 77.5 a.u.
Sequence = CTTTCCCGATCTTGTAATGTGGGTGTAGCACATTTG; result = 82.8 a.u.
Sequence = TAATAGCTTGAAAAGCACGTGAAGGGCTTGAAGCGG; result = 1350 a.u.
Sequence = CAAGAAATAAAAGAAAACGTGACTCGAGGCCTCCAT; result = 1270 a.u.
Sequence = GCACAGAAGCCCCATCACGTGACAAACAAGTGCTTC; result = 10700 a.u.
Sequence = CTTTCCCGATCTTTTCACGTGCGATTAGCACATTTG; result = 789 a.u.
Sequence = CGCCTAAGGAAAGAGCCCGTGAAATCATCAACAAGT; result = 80.7 a.u.
Sequence = CCAATTTATTGACATCACCTGGAATGCAGGCGGTGG; result = 104 a.u.
Sequence = AAAGCGGTAATTTGGTAGGTGGGTGCAGATATCTAT; result = 80.8 a.u.
Sequence = CTGGGTCCGTTACGATTCGTGCTTTAAGAGGTTTAA; result = 61.4 a.u.
Sequence = AATTGGTAAAACCATCACGTTTATGTTTTATTAAAA; result = 468 a.u.
Sequence = ACCAGCTGTTCCCAGCACCTGACGATTACCGACCAG; result = 166 a.u.
Sequence = CTGAGCATAGCCAATCACGTGGCCCACTCCCCGGCT; result = 4940 a.u.
Sequence = CTTCTGTAAATTTGTAAAGTGGGTGGACGCGCCCCG; result = 86.5 a.u.
Sequence = CATACCCAACCTTGTCACGGCACTTAAGATATTTGT; result = 101 a.u.
Sequence = AACTCCAAATATCTTCACGTGGCTGCCTGTTCTAAA; result = 1120 a.u.
Sequence = CTATTGATATGCTTGCATGTGGACGCAAGCAGACGC; result = 103 a.u.
Sequence = CATACCCAACCTTGTGCGGTGGGTGAAGATATTTGT; result = 63.6 a.u.
Sequence = AAATTACTAAGTTGGAGTGTGGGTGACGCCGTATGA; result = 60.7 a.u.

Block 5
Target: RNA binding protein fox-1 homolog 2, RRM domain, GST-SBP tag (RBFOX2, Homo sapiens, UniProt O43251-10, residues 100-194)
Method: RNA Bind-n-Seq
Molecule type: RNA
Medium: in vitro
Concentration: 365 nM
Notes: natural RNA segment, single round, ends assumed
Baseline: no-protein control
Reading: higher = stronger binding
Quantity: RBNS enrichment (R)
Constant ends, left off below: GGGAGUUCUACAGUCCGACGAUC … UGGAAUUCUCGGGUGCCAA
Residues (chain): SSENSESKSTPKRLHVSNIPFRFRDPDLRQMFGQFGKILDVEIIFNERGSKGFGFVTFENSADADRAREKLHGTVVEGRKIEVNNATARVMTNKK
Sequence = CUUGUGUUUGUAAGUCUGCAUCUGCAUAAGUACUGACUCUGGAUGGAAAAGCUUGGAAGACCUUGGUCUCACCAUUUGUCUACAUUUGUGUGACCAUAAAAUGCUGGGAG; result = 0.622
Sequence = CUGUGAUUAUAUUAUAUUGAGGCAUUUGUAGUGCAGCUGAAGACUGAAUUUAUGCCUUUUGUAAACAUGAUAGGUAUAAAUGUCUUAUAAACAUUCUGGAGUAUGUAUAG; result = 0.365
Sequence = UGAAGAAGUUCUAACUUUUAGCAUGCUGCACAGAAACUGGUAUAACAUGCCUUCAGUAUACUAACACUCAUAUGCUCAGUUUUGUUUUGUUUUGGCAGUUGACAAGAAGU; result = 9.77
Sequence = GUUGAUGCUUCUUGGUUGGCAAGACUUGGGUGUAGACAUGAAACCAUCUUACUAAAAGCGUCUUAAAAUGACCAAUUCCAGAAUCAAGCGUAUUCCGUUUUCUUCCUGCA; result = 1.04
Sequence = CACCAUCCACCAGACAGACCACCUGACCCCUUCUCAACUCUGUAACAUGGACGCAACCUCAACCCAGCGCAGUUACAACUUCACUAUCAGCGGAAGGGGAGAAAAACCGA; result = 0.454
Sequence = UAUCCCUUCAGCUCUCUGAUCUGCUCUUUCUUCAUGAUACUUAGUCUGCAGGGCAUAUUAAGAUCAUCCCAGAGGUUCAGGCAGUUCCUGUCAUCUCUGAAAAGACUGGG; result = 0.307
Sequence = UAGGUGUCCUUAGGGAGAGAAAACAGGAGCAAGCUCAUGGUCUGGCCUAGUCUCCCUCUCCCACUCCUUCUGAUGACACUAGCAAUGCAUUCCAUCUGACCUGACUUUAU; result = 0.918
Sequence = AUUGCCAUUCCCAUCGCUGUUAGCUCUAGAGCACAUCCAGAGCAUACGUUUACAGAGGAAACUUGAUCAUUUCCAACCAUCUUCCCCUACCCCACCCUCUCGCCCCUGGC; result = 0.369
Sequence = AUGUGCAAGGGUUUGGCUCGUGUCAUUUGAAAACUCCUGGCUUAUCUAAUGGGACCAGCUUGUGAAGUUUAUAGCCUUAAAGAAAUCUCUGUGCUAAGUUUUAGAACAGU; result = 1.18
Sequence = GAACCUGCUAUGGCCUUCAGCAGUCACCAUCAUCCAGACCCCCCGGGCCUCAGUUUCCUCAAUCAUAGAAGAAGACCAAUAGACAAGAUCAGCUGUUCUUAGAUGCUGGU; result = 0.317
Sequence = AAAGAUUUUUAACCCAUUCAUUCUUAGUGUGAAUUUUCUAAAAUAGAAGUAUAAAAAAAAAGUCUCUAUAAUCUGAUAGGAAACCGUCUUUUCCCAAGUGAAUUCCCUUU; result = 0.442
Sequence = UCCAAAGAAAACCUAAUUUUCUCAGUGGGUGAACUCAUCAUUGCUGGAACUGAAACUACAACCAAUGUGCUACGGUGGGCGAUUCUUUUCAUGGCCCUUUAUCCUAAUAU; result = 0.459

Some of these lines once more (block 2):
Sequence = GAAAAA; result = 0.891
Sequence = UUGUAC; result = 0.611
Sequence = AUCUGA; result = 0.583
Sequence = CACCUC; result = 0.618
Sequence = UGGUUA; result = 0.743
Sequence = UGGUGA; result = 1.37
Sequence = AGCUAA; result = 0.634
Sequence = ACAUCA; result = 0.609
Sequence = UUGAAC; result = 0.637
Sequence = GGGCGG; result = 9.34
Sequence = AGUUAC; result = 0.613
Sequence = AAAAGG; result = 0.985
Sequence = GUAGAC; result = 0.913
Sequence = ACAUUU; result = 0.623
Sequence = GGUCAC; result = 0.956
